Published values pooled from the literature.
Values joined by “and” are separate records of one study, mostly repeats; a detail may differ. Numbers after ± are the reported error.

With `OCc1ccc(N(Cc2ccc(F)cc2)CC2CC2)cc1Cl` the IC50 was 260 nM (RBE; cell viability, CellTiter-Glo).
`C=Cc1c2[n-]c(c1C)/C=c1\[n-]/c(c(C)c1C=C)=C\c1[n-]c(c(CCC(=O)O)c1C)/C=c1\[n-]c(c(C)c1CCC(=O)O)=C2.[Sn+4]` gave a fold change of 3.38 (SH-SY5Y; RNA-seq, refers to: SPRY1 mRNA; 5 µM, 5 h; relative to: untreated cells).
`CC/C(=N\NC(=O)C(C)Nc1ccccc1)c1ccc(O)c(C)c1O` (stereo not shown) has a protein level of 0.33 ± 0.14 (SK-OV-3; Western blot, refers to: phospho-YAP; 10 µM, 1 h, 3D gellan gum culture, unit not given; relative to: total YAP).
For `OCc1ccc(N2CCc3ccccc3C2)cc1Cl`, the IC50 was 230 nM (RBE; cell viability, CellTiter-Glo).
`Cc1nn(-c2ccccc2Cl)c(C)c1C(=O)Nc1ccc2ccccc2n1` has an inhibition of greater than 70% (Wnt-HEK293; Wnt/β-catenin signalling, inhibitor, luciferase reporter; 1 µM).
For `CSCC[C@H](NC(=O)[C@H](Cc1ccc(OS(=O)(=O)O)cc1)NC(=O)[C@@H](N)CC(=O)O)C(=O)NCC(=O)N[C@@H](Cc1c[nH]c2ccccc12)C(=O)N[C@@H](CCSC)C(=O)N[C@@H](CC(=O)O)C(=O)N[C@@H](Cc1ccccc1)C(N)=O`, the cAMP accumulation was 0.183 a.u. (HEK293T control virus; agonist, GloSensor cAMP; 10000 nM, no receptor expressed; higher = more cAMP).
The EC50 of `COc1cnc2cccc(N3CCc4c(cc(Cn5ccnc5C)cc4-c4cn(C)nc4C(F)(F)F)C3=O)c2c1` is reported as 2180 nM (IM95; cell growth, inhibitor; 120 h).
For `C=Cc1c(C)c2cc3nc(c(CC(=O)O)c4[nH]c(cc5nc(cc1[nH]2)C(C)=C5CC)c(C)c4C(=O)O)[C@@H](CCC(=O)O)[C@@H]3C`, “early apoptotic cells” read 19.9% and 19.8% and 24.3% (4T1; Annexin V-FITC/PI flow cytometry; concentration not given).
`Cc1cnc(NC2CCOCC2)nc1-n1cnc(C(=O)NC(CN)c2cc(F)cc(Cl)c2)c1` (stereo not shown): “G2 phase cells” 22.7% (Rec1; flow cytometry; 1 µM, 24 h).
`O=C(c1ccc2c(=O)n3c(nc2c1)CCCCC3)N1CCN(Cc2ccccc2)CC1` — result for protein level: “decreased” (BV-2; refers to: caspase-8; 30 nM, together with: high glucose; relative to: high glucose).
`COc1cc2ncnc(Nc3ccc(Oc4ccccc4)c(C)c3C)c2cc1OC.Cl` — result for “average fractional effect”: 26% (LoVo (KRAS G13D); cell viability, resazurin; 1 µM, 72 h, together with: trametinib 0 nM; relative to: DMSO).
The fold change of `C=CC1=C(C)c2cc3[n-]c(cc4nc(cc5[n-]c(cc1n2)c(C)c5C=C)C(C)=C4CCC(=O)O)c(CCC(=O)O)c3C.[Zn+2]` is reported as 3.31 (SH-SY5Y; RNA-seq, refers to: LIF mRNA; 5 µM, 5 h; relative to: untreated cells).
`c1ccc2[nH]ccc2c1` — result for “mRNA level, LS mean”: 2.45 counts per million (HCT-8; RNA-seq, refers to: ANKRD34A; concentration not given).
`O=C(Nc1nnc2n3c(=S)[nH][nH]c3nc(-c3ccc(Cl)cc3)c1-2)c1ccccc1` has a cell growth of 79.2% (SF-295; SRB; 10 µM, NCI60 single-dose screen; relative to: untreated).
With `CCCCN1CCN(c2ccc3[nH]c(-c4ccc5[nH]c(-c6cc(OC)c(OC)c(OC)c6)nc5c4)nc3c2)CC1` the growth percent was 58.6% (SF-295; SRB; 10 µM, 48 h).
With `NC(=O)NO` the cell confluence was 91.6 ± 5.07% (HCT-116; cell growth, live-cell imaging; 30 µM, control at 90% confluence).
With `OCc1ccc(-c2cn(Cc3ccccc3)c3ccccc23)o1` the IC50 was 7120 nM (RBE; cell viability, CellTiter-Glo).
For `Cn1cc(Nc2nccc(-c3ccc4c(c3)CN(C3COC3)CC[C@H]4NC(=O)c3cn(C(C)(C)C)nn3)n2)cn1`, “pathway activation z-score” read 1.94 (mouse splenic B cells; refers to: JAK/Stat signalling; 30 mg/kg, IgD-activated in vivo; relative to: vehicle, direction not given).
`O=C1CC[C@H](N2Cc3cc(N4CCN(CC5CCN(c6ccc([C@@H]7c8ccc(O)cc8CC[C@@H]7c7ccccc7)cc6)CC5)CC4)ccc3C2=O)C(=O)N1` has a GI50 of 5.7 nM (T47D expressing ESR1 D538G; cell growth, CellTiter-Glo; 120 h).
With `NC(=O)NOCCCCCCCCCCCCCC[P+](c1ccccc1)(c1ccccc1)c1ccccc1.O=C([O-])C(F)(F)F` the cell confluence was 2.18% (HCT-116; cell growth, live-cell imaging; 5 µM, control at 90% confluence).
`Nc1cccc2c1C(=O)N(C1CCC(=O)NC1=O)C2=O` (stereo not shown) gave a viability of 7% (bone marrow CD138+ myeloma cells; XTT; 1.8 µM, mean of three patients).
`CCN(Cc1ccc(C)cc1)c1ccc(CO)c(Cl)c1` has an IC50 of 370 nM (RBE; cell viability, CellTiter-Glo).
`CC(=O)O[C@@]12CO[C@@H]1C[C@H](O)[C@@]1(C)C(=O)[C@H](O)C3=C(C)[C@@H](OC(=O)[C@H](O)[C@@H](NC(=O)OC(C)(C)C)c4ccccc4)C[C@@](O)([C@@H](OC(=O)c4ccccc4)[C@H]21)C3(C)C` gave a CD133-positive cells of 9 ± 0.3% (4T1; flow cytometry; concentration not given, 48 h).
`CCn1c2ccc(CNCCOCCOCCOCCC(=O)NCCOc3ccc(CCc4nc5cc(-c6c(C)noc6C)ccc5n4CCN4CCOCC4)cc3F)cc2c2ccc(-c3cc(C)cs3)cc21`: “GADD45A mRNA level” “increased” (NCI-H1299 expressing p53 Y220C; RT-qPCR; 3 µM, 24 h; relative to: DMSO).
For `NCc1ccc(-c2nn(Cc3ccncc3)c3ccccc23)o1`, the IC50 was 600 nM (RBE; cell viability, CellTiter-Glo).
`C=C1CC(C(=O)Nc2cc(C(=O)NC)cc(-c3ccc(C(C)=O)s3)c2OC)C1` has a phagocytosis increase of roughly 46% (BV-2; fluorescent latex beads; 25 µM, 1 h; relative to: control).
`Cc1nn(-c2nc3c(F)cc(F)cc3s2)c(O)c1C(c1ccc(C(F)(F)F)cc1)c1c(C)nn(-c2nc3c(F)cc(F)cc3s2)c1O` — result for “IFNB1 mRNA level”: 0.0873 and 0.162 and 0.154 (RAW-ISG; RT-qPCR; 10 µM, 312 h, unit not given, together with: HT-DNA; relative to: DMSO).
`C[C@H](Nc1ccc2c(c1)OCCn1cc(N3C(=O)OC[C@H]3C(F)F)nc1-2)C(N)=O` — result for “Hill coefficient GR curve”: 0.326 (ESS-1; cell growth, CellTiter-Glo; 120 h).
Under “log2 fold change”, `Nc1ncnc2c1ncn2[C@@H]1O[C@H](CO)[C@@H](O)[C@H]1O` is recorded as 6.6 and 7.2 and 6.7 (activated human T cells; refers to: dihydroorotate; 50 µM; relative to: DMSO).
The GI50 of `O=C(/C=C/C=C/C=C/C1CCCCC1)NC1=C[C@@](O)(/C=C/C=C/C=C/C(=O)NC2=C(O)CCC2=O)[C@@H]2O[C@@H]2C1=O` is reported as 9220 nM (Panc1005; cell growth, CellTiter-Glo; 78 h).
`NC(=O)NOCCCCCCCCCCCCCCCCCCCC[P+](c1ccccc1)(c1ccccc1)c1ccccc1.O=C([O-])C(F)(F)F` has a cell confluence of 2.87% (HCT-116; cell growth, live-cell imaging; 5 µM, control at 90% confluence).
For `Cc1cc(Nc2ncc(Cl)c(Nc3ccccc3S(=O)(=O)C(C)C)n2)c(OC(C)C)cc1C1CCNCC1`, “log2 fold change” read -4.72 (CLB-BAR; phosphoproteomics LC-MS/MS, refers to: BRD2 phosphorylation; 200 nM, 60 min; relative to: untreated).
`CSc1cccc(Nc2ncc3cc(-c4c(Cl)cccc4Cl)c(=O)n(C)c3n2)c1` gave a cell index of 94.6% (hiPSC-derived cardiomyocytes (iCell); impedance; concentration not given, 24 h; relative to: control).
For `Cn1cc(-c2ccc(-c3cncc(Cl)c3N3CCC4(CCNC4=O)CC3)cc2)cn1`, “log2 fold change” read -2.67 (COLO 205; gene expression, microarray, refers to: HIST1H4F mRNA; concentration not given, 2 h; relative to: untreated cells).
The toxicity of `COc1ccc(-n2nc(C(C)=O)s/c2=N\N=C(/C)c2ccc(NC(=O)c3ccc(Cl)cc3)cc2)cc1` is reported as 91.2% (MCF7; 1.25 µM).
`CC(C)NCC(O)c1ccc(O)c(O)c1` (stereo not shown) gave a sarcomere length of 1.77 µm (mouse ventricular cardiomyocytes; dose not given, 0.415 s).
`O=P1(C2CCCCC2)CCCCC1` — result for “early apoptotic cells”: 4.75% (SW-620; annexin V/PI flow cytometry; IC50, 72 h).
`NC(=O)NOCCCCCCCCCC[P+](c1ccccc1)(c1ccccc1)c1ccccc1.O=C([O-])C(F)(F)F` gave a cell confluence of 26.8% (HCT-116; cell growth, live-cell imaging; 10 µM, control at 90% confluence).
For `CC/C(=N\NC(=O)NCc1cccc(O)c1)c1ccc(O)c(C)c1O`, “LATS band intensity” read 1 ± 0.24 (SK-OV-3; Western blot; 10 µM, 24 h, 3D gellan gum culture, unit not given; relative to: DMSO).
With `CCN(Cc1cc(F)cc(F)c1)c1ccc(CO)c(Cl)c1` the IC50 was 110 nM (RBE; cell viability, CellTiter-Glo).
Under “apoptotic cells Total”, `COc1nc(NCc2cn(-c3ccc(C(=O)Nc4ccccc4)cc3)nn2)nc(OC)n1` is recorded as 30.1% (HCT-116; annexin V-FITC/PI; IC50, 24 h).
The beat amplitude of `COc1cc2c(Oc3ccc(NC(=O)C4(C(=O)Nc5ccc(F)cc5)CC4)cc3F)ccnc2cc1OCCCN1CCOCC1` is reported as 106% (hiPSC-derived cardiomyocytes (iCell); impedance (xCELLigence Cardio); concentration not given, 2 h; relative to: control).
`O=C1N(Cc2cccc3ccccc23)c2ccccc2C12NN=C(c1ccccc1)S2` (stereo not shown) gave a viability loss of 80 to 90% (H2373 and H2461 mesothelioma; MTT; 10 µM, 24 h).
With `NC(=O)NOCCCCCCCCCCCCCCCC[P+](c1ccccc1)(c1ccccc1)c1ccccc1.O=C([O-])C(F)(F)F` the cell confluence was 6.56% (HCT-116; cell growth, live-cell imaging; 2 µM, control at 90% confluence).
For `CCn1cc(-c2cc(Cn3ccnc3)cc3c2CCN([C@H](c2cc(OC)ccn2)C2CC2)C3=O)c(C(F)(F)F)n1`, the EC50 was greater than 30000 nM (NCI-H1373; cell growth, inhibitor; 120 h).
The cell index of `CN(C)CC(=O)N1CCC(c2ccc(NC(=O)c3nc(C#N)c[nH]3)c(C3=CCCCC3)c2)CC1` is reported as 102% (hiPSC-derived cardiomyocytes (iCell); impedance; concentration not given, 24 h; relative to: control).
`Cc1cccc(-c2[nH]c(CNc3ccccc3F)nc2-c2ccc3ncnn3c2)n1` gave a TNF-alpha production of 0.927% and 0.903% and 1.09% and 0.962% and 1.08% and 1.04% (CD8+ T cells from myeloma patient; ELISA; human; 1 µM).
With `CCCCN1C[C@H](O)[C@@H](O)[C@@H](O)[C@H]1CO` the IC50 was 10400 nM (sample F patient fibroblasts; Gb3 level lowering, LC-MS/MS, refers to: Gb3 d18:1/22:0; 216 h).
With `CCn1cc(-c2cc(Cn3ccoc3=N)cc3c2CCN([C@@H](C)c2cc(OC)ccn2)C3=O)c(C(F)(F)F)n1` the EC50 was 8.26 nM (ASPC1; cell growth, inhibitor; 120 h).

For quick reference, copied from above:
For `OCc1ccc(N2CCc3ccccc3C2)cc1Cl`, the IC50 was 230 nM (RBE; cell viability, CellTiter-Glo).
`Cc1nn(-c2ccccc2Cl)c(C)c1C(=O)Nc1ccc2ccccc2n1` has an inhibition of greater than 70% (Wnt-HEK293; Wnt/β-catenin signalling, inhibitor, luciferase reporter; 1 µM).
For `CSCC[C@H](NC(=O)[C@H](Cc1ccc(OS(=O)(=O)O)cc1)NC(=O)[C@@H](N)CC(=O)O)C(=O)NCC(=O)N[C@@H](Cc1c[nH]c2ccccc12)C(=O)N[C@@H](CCSC)C(=O)N[C@@H](CC(=O)O)C(=O)N[C@@H](Cc1ccccc1)C(N)=O`, the cAMP accumulation was 0.183 a.u. (HEK293T control virus; agonist, GloSensor cAMP; 10000 nM, no receptor expressed; higher = more cAMP).
The EC50 of `COc1cnc2cccc(N3CCc4c(cc(Cn5ccnc5C)cc4-c4cn(C)nc4C(F)(F)F)C3=O)c2c1` is reported as 2180 nM (IM95; cell growth, inhibitor; 120 h).
For `C=Cc1c(C)c2cc3nc(c(CC(=O)O)c4[nH]c(cc5nc(cc1[nH]2)C(C)=C5CC)c(C)c4C(=O)O)[C@@H](CCC(=O)O)[C@@H]3C`, “early apoptotic cells” read 19.9% and 19.8% and 24.3% (4T1; Annexin V-FITC/PI flow cytometry; concentration not given).
`Cc1cnc(NC2CCOCC2)nc1-n1cnc(C(=O)NC(CN)c2cc(F)cc(Cl)c2)c1` (stereo not shown): “G2 phase cells” 22.7% (Rec1; flow cytometry; 1 µM, 24 h).
